Assay results from different studies.
Compare with care: the assays were run in different laboratories. Values joined by “and” are separate records of one study, mostly repeats; a detail may differ.
RPS6KA3: Ribosomal protein S6 kinase alpha-3 (RPS6KA3, Homo sapiens, UniProt P51812)

For `C=CC(=O)Nc1cc(-c2nn(C3CCN(CCNC(=O)[C@H](C)CCC45CC6CC(CC(C6)C4)C5)CC3)c3ncnc(N)c23)ccc1Oc1ccccc1`, the inhibition was 15.9% (Ribosomal protein S6 kinase alpha-3, N-terminal kinase domain (RPS6KA3, Homo sapiens, UniProt P51812); inhibitor, KiNativ profiling; biochemical; 2 µM).
With `Cc1cccc(O[C@H]2CCC[C@@H](C(C)CNCc3ccncc3)C2)c1` (relative stereo) the inhibition was -4% (RPS6KA3; enzyme activity, inhibitor; 10 µM).
`COc1c(OCCCN2CCOCC2)ccc2c1N=C(NC(=O)c1cnc(N)nc1)N1CCN=C21` gave a remaining activity of 121% (RPS6KA3; kinase activity, inhibitor; 1 µM; reference: untreated control).
`C#CCOC(=O)[C@]1(C)C=C(C(=O)OC(C)(C)C)C(=O)CC1` gave an initial slope of 849 and 655 and 765 (RPS6KA3; kinase activity, RSK sensor).
`Cc1ccc(C)c(-c2ccc3nc(NC(=O)C4CCCCC4)nn3c2)c1` gave a remaining activity of 62% (RPS6KA3; enzyme activity, Dundee kinase panel; 10 µM).
`CCn1cc(C(=O)O)c(=O)c2c(N)c(F)c(NC3CCCCC3)cc21` has an inhibition of 8.5% (RPS6KA3; kinase activity; 0.1 µM, with: ATP at Km).
Under “activity vs control”, `CNC(=O)C[C@H](Cc1ccc(C#N)cc1)NC(=O)c1cc(-c2ccc(CN[C@H](C)c3ccc(C)cc3)o2)ccc1Cl` is recorded as 102% (RPS6KA3; enzyme activity, inhibitor; 1 µM).
The inhibition of `C=CC(=O)Nc1cccc(-c2cnc3[nH]cc(C(=O)NC(C)(C)C)c3n2)c1` is reported as 23% (RPS6KA3; kinase activity; 0.1 µM).
`O=C(Cc1ccc(OCc2ccccc2)cc1)NC1(C(=O)O)CCN(C(=O)c2ccc(-c3cccc(Cl)c3)cc2)CC1` — result for “activity vs control”: 112% (RPS6KA3; enzyme activity, inhibitor; 10 µM).
With `Cc1cccc(-c2ccc3nc(NC(=O)C4CCCCC4)nn3c2)c1` the remaining activity was 76% (RPS6KA3; enzyme activity, Dundee kinase panel; 10 µM).
`CS(=O)(=O)Nc1cccc(-c2csc3cnc(Nc4ccc(N5CCN(CCCCCOc6cccc7c6C(=O)N(C6CCC(=O)NC6=O)C7=O)CC5)cc4)nc23)c1` (stereo not drawn) has an inhibition of -15.7% (Ribosomal protein S6 kinase alpha-3, C-terminal kinase domain (RPS6KA3, Homo sapiens, UniProt P51812); probe labelling, inhibitor, KiNativ chemoproteomics; MOLT-4; 1 µM).
With `NC(=O)[C@@H](O)C[C@H]1CCc2sc3ncnc(O[C@H]4CC[C@H](N5CCOCC5)CC4)c3c21` the inhibition was 24% (RPS6KA3; enzyme activity, inhibitor; 10 µM).
With `O=C=[N][Ru-4]123([n]4c5ccc(O)cc5c5c6c(c7cc(F)c[n+]1c7c54)C(=O)NC6=O)[S+]1CC[S+]2CC[S+]3CC1` (stereo not drawn) the remaining activity was 21% (RPS6KA3; enzyme activity; 100 nM, human enzyme, with: 10 µM ATP; reference: untreated).
`C=CC(=O)N1Cc2nc(-c3cc(-c4cc(Cl)cnc4Cl)c(F)cc3F)n(-c3ccncn3)c2C1` gave an inhibition of 0.6% (RPS6KA3; cell-free assay, inhibitor; 1 µM).
The inhibition of `CN1CCN(Cc2ccc(-c3ccc(CO[C@H]4CCC[C@@H]4NC(=O)c4cc(-c5cnn(C)c5)cnc4N)cc3)cc2)CC1` is reported as 3% (RPS6KA3; enzyme activity, inhibitor; 0.1 µM).

Repeated from above:
`O=C(Cc1ccc(OCc2ccccc2)cc1)NC1(C(=O)O)CCN(C(=O)c2ccc(-c3cccc(Cl)c3)cc2)CC1` — result for “activity vs control”: 112% (RPS6KA3; enzyme activity, inhibitor; 10 µM).
